{"data": "Experimental data gathered from unrelated publications", "note": "Numbered parts are unrelated; each lists some results of a single study. Substitutions count along the parent as printed.", "UniProt P08588, sequence (whole entry, looked up)": "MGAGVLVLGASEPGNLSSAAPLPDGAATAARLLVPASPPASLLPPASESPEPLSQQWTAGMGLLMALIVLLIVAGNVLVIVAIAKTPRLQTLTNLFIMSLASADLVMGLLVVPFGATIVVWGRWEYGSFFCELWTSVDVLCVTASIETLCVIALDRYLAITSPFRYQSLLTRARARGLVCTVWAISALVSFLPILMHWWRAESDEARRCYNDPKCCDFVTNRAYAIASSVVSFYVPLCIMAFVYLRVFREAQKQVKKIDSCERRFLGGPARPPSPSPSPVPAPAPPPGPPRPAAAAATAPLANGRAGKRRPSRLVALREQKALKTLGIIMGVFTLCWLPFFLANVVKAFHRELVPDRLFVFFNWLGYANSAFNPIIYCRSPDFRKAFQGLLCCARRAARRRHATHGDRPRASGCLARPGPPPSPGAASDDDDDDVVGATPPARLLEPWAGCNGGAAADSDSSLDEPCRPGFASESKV"}
{"data": "Series 1", "target": "Centromere-binding protein 1, full length, N-terminal tag (CBF1, Saccharomyces cerevisiae, UniProt P17106, residues 1-351)", "technique": "protein-binding microarray", "form": "double-stranded DNA, one strand shown", "matrix": "in vitro", "tested at": "0.8 µM", "notes": "whole 60-bp probe, no competitor", "direction": "higher = stronger binding", "shared flanks, not repeated": "… GTCTTGATTCGCTTGACGCTGCTG", "UniProt P17106, sequence (whole entry, looked up)": "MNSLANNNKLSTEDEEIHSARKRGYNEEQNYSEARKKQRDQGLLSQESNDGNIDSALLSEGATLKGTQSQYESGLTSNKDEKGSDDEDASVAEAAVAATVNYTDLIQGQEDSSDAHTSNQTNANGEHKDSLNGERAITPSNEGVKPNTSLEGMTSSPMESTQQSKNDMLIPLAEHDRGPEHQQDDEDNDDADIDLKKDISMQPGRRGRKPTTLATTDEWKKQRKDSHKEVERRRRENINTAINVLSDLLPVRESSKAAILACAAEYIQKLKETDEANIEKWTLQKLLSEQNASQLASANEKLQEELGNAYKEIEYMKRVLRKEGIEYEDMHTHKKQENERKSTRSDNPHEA"}
{"Oligonucleotide": "CCTAACTACTATAATAGCATGACATAGCTTCGTACA", "fluorescence intensity": "564 a.u."}
{"Oligonucleotide": "GAAATGGCACTTTCTCACGTGCCTTTCAGACTATAG", "fluorescence intensity": "4240 a.u."}
{"Oligonucleotide": "CTACATACTTACCATCACCTCCCTCGACAAATATTC", "fluorescence intensity": "528 a.u."}
{"Oligonucleotide": "GAAATTTGATCATAGCATGTGCTCTATATTGTATAG", "fluorescence intensity": "1050 a.u."}
{"Oligonucleotide": "CTAAATCCCAACAATTACATCAGAACCCACACTTTC", "fluorescence intensity": "474 a.u."}
{"Oligonucleotide": "CTATTCAAGAAGCACCACGACAGACCAGGTTTGTTC", "fluorescence intensity": "508 a.u."}
{"Oligonucleotide": "CTATCATGGCAACGTCACCTCAATTATTTGGAATTC", "fluorescence intensity": "523 a.u."}
{"Oligonucleotide": "GAAGATGAATCCTGGCACGGGTTTGATTCTGATTAG", "fluorescence intensity": "670 a.u."}
{"data": "Series 2", "target": "CCND3, cyclin fold, Cln2 fusion (human)", "technique": "yeast growth competition, sequencing", "matrix": "yeast", "notes": "weak parent motif", "baseline": "not given", "direction": "higher = stronger binding", "parent": "viral docking peptide; YKVKRRLVFGADD"}
{"Variant": "K2P", "normalised enrichment score": 0.426}
{"Variant": "R6S", "normalised enrichment score": 0.209}
{"Variant": "V8I", "normalised enrichment score": 0.00794}
{"Variant": "V3T", "normalised enrichment score": 0.25}
{"Variant": "A11N", "normalised enrichment score": 0.287}
{"Variant": "Y1A", "normalised enrichment score": 0.0721}
{"Variant": "L7E", "normalised enrichment score": 0.436}
{"Variant": "R5V", "normalised enrichment score": 0.328}
{"Variant": "G10E", "normalised enrichment score": 0.275}
{"Variant": "F9E", "normalised enrichment score": 0.3}
{"Variant": "R6D", "normalised enrichment score": 0.345}
{"Variant": "K4P", "normalised enrichment score": 0.0937}
{"Variant": "K4M", "normalised enrichment score": -0.836}
{"Variant": "V3Y", "normalised enrichment score": 0.319}
{"Variant": "V8S", "normalised enrichment score": 0.719}
{"data": "Series 3", "target": "Hepatocyte nuclear factor 3-alpha (Foxa1, Mus musculus, UniProt P35582, residues 1-468, full length assumed)", "technique": "EMSA with sequencing", "form": "double-stranded DNA, one strand shown", "matrix": "in vitro", "tested at": "10 and 20 nM", "notes": "whole designed probe, mean of two concentrations, ends assumed", "baseline": "negative control set to 0", "direction": "higher = stronger binding", "shared flanks, not repeated": "GTGAGCGGTGCCCATTGATGGGGAAC … TTTCACTGGGATCGTGGGGAC", "UniProt P35582, sequence (whole entry, looked up)": "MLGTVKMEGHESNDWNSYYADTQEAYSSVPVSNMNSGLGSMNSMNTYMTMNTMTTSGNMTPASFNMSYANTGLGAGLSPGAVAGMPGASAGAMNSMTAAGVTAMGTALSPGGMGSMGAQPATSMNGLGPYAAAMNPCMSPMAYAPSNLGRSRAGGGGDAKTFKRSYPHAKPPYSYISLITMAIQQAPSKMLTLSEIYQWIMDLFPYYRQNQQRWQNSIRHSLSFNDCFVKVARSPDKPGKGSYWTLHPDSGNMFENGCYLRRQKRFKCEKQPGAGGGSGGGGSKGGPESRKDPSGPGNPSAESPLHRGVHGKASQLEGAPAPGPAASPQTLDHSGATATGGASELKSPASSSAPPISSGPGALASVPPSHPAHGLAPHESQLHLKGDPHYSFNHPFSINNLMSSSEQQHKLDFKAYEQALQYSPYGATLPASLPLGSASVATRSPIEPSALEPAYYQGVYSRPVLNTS"}
{"Oligonucleotide": "ATCTTCCCCCTCTTCCTTGCCCCACCAGCTCACCTTCCCGGGTTATTTGCAGATAGGAAAATAAATAAAGCCGGCATTCGTTAGCATCCCGACTCTCATATCGGCTGTTTGCTCTGGATGAATCATGGTCCTTTGGCGACGCCAGGCTCCGGGAGAGCAAAGCACCGTGTCAGGGCCATGATCCGGGGTGGCC", "normalised bound fraction": "0.366 ratio"}
{"Oligonucleotide": "TAATATACTATATGGAATAATGACTTTCTATATCCGTAATCAAAAATTACTTTGAATATCAGTAGGTTGAGTTAGTAGTTTGATTCTGGTCCCTAGATTACTCTGATGCAATCCCCTGTAAGAAGGACCTGACAAAGTGCCTGGTGAATGGGGTTCAGTACATGCCAGTACCTTTTCTTTCCCTGCTAATGCG", "normalised bound fraction": "-0.0786 ratio"}
{"Oligonucleotide": "GGCTCCAAACGGCTGAATCAGCATTTTCAGAAACAAAGTGTTCTAGGCCTGGCCTTTTAAACAGCAGCAACGAGCAAGTTGTGCAATAACGCAAAATTACTCACGAGCTCTCCTTGTTTTGGTCTTTCCCCCCTCCCCCCCATCTCTTGAATGAAACTGGGCACCAAGTTTGCAAGAAAATATTCTTTCAAAC", "normalised bound fraction": "-0.0551 ratio"}
{"Oligonucleotide": "GATTTTTCTAGGAAATTACAGGTTTTTTTTTAAATCAAGACCATTGGTATATAGCTGTGCAGTATTTTCTGTATTAATTAAAAATTTCCCTCATATTTACTTTCATATCCCTTTATCCATTTTTAAATTTATGTAACCCAAATGTTACAGTCTCATGAGGTCAGAGTCTCATTAAGAAAAAATCCTGCATTTT", "normalised bound fraction": "0.12 ratio"}
{"Oligonucleotide": "ATCTTCCCCCTCTTCCTTGCCCCACCAGCTCACCTTCCCGGGTTGTTTACTTTGAGCAAAGTAAACAAAGCCGGCATTCGTTAACCCTCTTCTGGCGCAAACTGCTGTTTACTTTGGATCTAACATGGTCCTTTGGCGACGCCAGGCTCCGGGAGAGCAAAGCACCGTGTCAGGGCCATGATCCGGGGTGGCC", "normalised bound fraction": "0.542 ratio"}
{"Oligonucleotide": "ATCTTCCCCCTCTTCCTTGCCCCACCAGCTCACCTTCCCGGGTTATTTGCAGATAGGAAATTAATATAAGCCGGCATTCGTTAACCCTCTTCTGGCGCAAACTGCTGTTTGCTCTGGATGAATCATGGTCCTTTGGCGACGCCAGGCTCCGGGAGAGCAAAGCACCGTGTCAGGGCCATGATCCGGGGTGGCC", "normalised bound fraction": "0.167 ratio"}
{"Oligonucleotide": "AGGTGAATTGGCTGCTTCCATCCTGGCTTGGAACTTCAGACATAGAAGCCTTGGGACTTTCTCAGGCTGACTCATGCACTTTCTCCAGATGCTTGTTTGCTGAATCTCTGTGGATCACGTGACCTTAGCCAGGGATGTTGGTGAAACTGTGTGTTGGTCTAGGTACCTAGCCCATGCTAGGTGCTCATCGAAT", "normalised bound fraction": "0.046 ratio"}
{"Oligonucleotide": "ACGGTGTTTGCAGAGTGACTGTTCCCCTGGGGGACCCTAGGCTTGTCCTCGCGTTACCTTTGTCCCATCAGTTGCTGCTCTGGCTGGGGAAGTTGTTTACATTGGCTGCTGTGTGCTGCTGCTAGGAATTTTGAGGAGTGTGCACTTTTTTTTTTTTTTTTTTGCTGTTGTTGAGGCGGAGTCTCGCTCTGTC", "normalised bound fraction": "0.437 ratio"}
{"data": "Other studies, line by line"}
{"Substance": "NDUFB4 (Homo sapiens, UniProt O95168)", "tested on": "UQCR10 (Homo sapiens, UniProt Q9UDW1)", "test": "cross-linking MS", "test system": "cells", "setting": "together with: BSPNO", "measurement": "cross-linked residues", "result": "K7 to A2"}
{"Substance": "C[C@@H]([C@H](O)c1ccccc1)N(C)C", "tested on": "Beta-1 adrenergic receptor (ADRB1, Homo sapiens, UniProt P08588)", "test": "agonist", "measurement": "Emax", "result": "68.8%"}
{"note": "For quick reference, copied from above (series 1):"}
{"Oligonucleotide": "CTACATACTTACCATCACCTCCCTCGACAAATATTC", "fluorescence intensity": "528 a.u."}
{"Oligonucleotide": "GAAATTTGATCATAGCATGTGCTCTATATTGTATAG", "fluorescence intensity": "1050 a.u."}
{"Oligonucleotide": "CTAAATCCCAACAATTACATCAGAACCCACACTTTC", "fluorescence intensity": "474 a.u."}
{"Oligonucleotide": "CTATTCAAGAAGCACCACGACAGACCAGGTTTGTTC", "fluorescence intensity": "508 a.u."}
{"Oligonucleotide": "CTATCATGGCAACGTCACCTCAATTATTTGGAATTC", "fluorescence intensity": "523 a.u."}
